Published values of several laboratories.
Compare with care: the assays were run in different laboratories.
MTNR1A: Melatonin receptor type 1A (MTNR1A, Homo sapiens, UniProt P48039)
Chain of UniProt P48039 (whole entry, looked up): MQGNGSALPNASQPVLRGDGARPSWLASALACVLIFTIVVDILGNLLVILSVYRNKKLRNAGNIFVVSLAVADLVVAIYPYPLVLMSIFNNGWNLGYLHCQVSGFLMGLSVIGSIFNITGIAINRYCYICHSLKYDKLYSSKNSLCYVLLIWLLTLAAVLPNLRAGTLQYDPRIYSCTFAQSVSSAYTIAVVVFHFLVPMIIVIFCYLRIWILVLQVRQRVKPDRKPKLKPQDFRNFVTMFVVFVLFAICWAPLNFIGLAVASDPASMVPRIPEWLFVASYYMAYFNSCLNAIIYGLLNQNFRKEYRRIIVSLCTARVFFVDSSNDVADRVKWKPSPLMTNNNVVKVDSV
PDPK1: 3-phosphoinositide-dependent protein kinase 1 (PDPK1, Homo sapiens, UniProt O15530)
Chain of UniProt O15530 (whole entry, looked up): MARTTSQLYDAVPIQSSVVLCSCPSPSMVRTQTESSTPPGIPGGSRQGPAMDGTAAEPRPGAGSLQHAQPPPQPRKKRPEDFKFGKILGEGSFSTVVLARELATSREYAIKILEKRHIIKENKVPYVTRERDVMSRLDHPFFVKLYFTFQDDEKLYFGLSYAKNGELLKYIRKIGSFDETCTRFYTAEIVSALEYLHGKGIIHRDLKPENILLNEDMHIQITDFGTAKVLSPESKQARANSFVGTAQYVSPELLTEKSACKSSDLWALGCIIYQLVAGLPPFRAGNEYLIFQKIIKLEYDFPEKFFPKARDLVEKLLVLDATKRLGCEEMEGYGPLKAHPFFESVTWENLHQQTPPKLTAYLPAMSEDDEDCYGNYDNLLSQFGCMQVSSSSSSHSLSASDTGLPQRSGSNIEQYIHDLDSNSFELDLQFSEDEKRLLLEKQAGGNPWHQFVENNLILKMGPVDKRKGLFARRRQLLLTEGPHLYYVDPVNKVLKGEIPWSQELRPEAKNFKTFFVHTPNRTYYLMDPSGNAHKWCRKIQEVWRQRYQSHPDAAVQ
Chain of UniProt P27361 (whole entry, looked up): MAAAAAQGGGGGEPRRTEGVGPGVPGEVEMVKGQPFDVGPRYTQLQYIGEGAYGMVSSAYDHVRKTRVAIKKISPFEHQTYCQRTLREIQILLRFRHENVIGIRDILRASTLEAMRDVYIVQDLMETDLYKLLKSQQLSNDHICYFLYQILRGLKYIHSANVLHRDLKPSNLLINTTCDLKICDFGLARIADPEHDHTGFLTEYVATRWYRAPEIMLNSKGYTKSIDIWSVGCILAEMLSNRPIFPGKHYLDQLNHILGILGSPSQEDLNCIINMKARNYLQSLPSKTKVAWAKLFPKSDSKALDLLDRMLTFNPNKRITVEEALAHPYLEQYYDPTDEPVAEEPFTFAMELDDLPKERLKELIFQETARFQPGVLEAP
Chain of UniProt P78362 (whole entry, looked up): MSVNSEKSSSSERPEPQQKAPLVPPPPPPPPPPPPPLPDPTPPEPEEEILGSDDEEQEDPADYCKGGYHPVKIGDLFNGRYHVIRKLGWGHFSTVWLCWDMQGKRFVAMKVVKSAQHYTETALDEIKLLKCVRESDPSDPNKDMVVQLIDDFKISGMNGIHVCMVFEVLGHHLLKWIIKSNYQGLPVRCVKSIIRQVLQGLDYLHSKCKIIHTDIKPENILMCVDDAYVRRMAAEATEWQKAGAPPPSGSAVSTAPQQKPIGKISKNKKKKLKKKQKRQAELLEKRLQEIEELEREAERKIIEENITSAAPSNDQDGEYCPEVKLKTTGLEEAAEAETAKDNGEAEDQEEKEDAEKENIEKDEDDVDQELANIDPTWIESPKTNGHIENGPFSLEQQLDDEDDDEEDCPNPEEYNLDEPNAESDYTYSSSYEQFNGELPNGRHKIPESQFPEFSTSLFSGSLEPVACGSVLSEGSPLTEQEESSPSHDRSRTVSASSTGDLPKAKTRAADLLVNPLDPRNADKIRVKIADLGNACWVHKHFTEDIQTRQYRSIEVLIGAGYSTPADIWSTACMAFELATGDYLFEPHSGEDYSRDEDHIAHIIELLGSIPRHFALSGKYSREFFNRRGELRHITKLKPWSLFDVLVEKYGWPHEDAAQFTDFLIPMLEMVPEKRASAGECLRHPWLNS
Chain of UniProt Q9H4A3 (whole entry, looked up): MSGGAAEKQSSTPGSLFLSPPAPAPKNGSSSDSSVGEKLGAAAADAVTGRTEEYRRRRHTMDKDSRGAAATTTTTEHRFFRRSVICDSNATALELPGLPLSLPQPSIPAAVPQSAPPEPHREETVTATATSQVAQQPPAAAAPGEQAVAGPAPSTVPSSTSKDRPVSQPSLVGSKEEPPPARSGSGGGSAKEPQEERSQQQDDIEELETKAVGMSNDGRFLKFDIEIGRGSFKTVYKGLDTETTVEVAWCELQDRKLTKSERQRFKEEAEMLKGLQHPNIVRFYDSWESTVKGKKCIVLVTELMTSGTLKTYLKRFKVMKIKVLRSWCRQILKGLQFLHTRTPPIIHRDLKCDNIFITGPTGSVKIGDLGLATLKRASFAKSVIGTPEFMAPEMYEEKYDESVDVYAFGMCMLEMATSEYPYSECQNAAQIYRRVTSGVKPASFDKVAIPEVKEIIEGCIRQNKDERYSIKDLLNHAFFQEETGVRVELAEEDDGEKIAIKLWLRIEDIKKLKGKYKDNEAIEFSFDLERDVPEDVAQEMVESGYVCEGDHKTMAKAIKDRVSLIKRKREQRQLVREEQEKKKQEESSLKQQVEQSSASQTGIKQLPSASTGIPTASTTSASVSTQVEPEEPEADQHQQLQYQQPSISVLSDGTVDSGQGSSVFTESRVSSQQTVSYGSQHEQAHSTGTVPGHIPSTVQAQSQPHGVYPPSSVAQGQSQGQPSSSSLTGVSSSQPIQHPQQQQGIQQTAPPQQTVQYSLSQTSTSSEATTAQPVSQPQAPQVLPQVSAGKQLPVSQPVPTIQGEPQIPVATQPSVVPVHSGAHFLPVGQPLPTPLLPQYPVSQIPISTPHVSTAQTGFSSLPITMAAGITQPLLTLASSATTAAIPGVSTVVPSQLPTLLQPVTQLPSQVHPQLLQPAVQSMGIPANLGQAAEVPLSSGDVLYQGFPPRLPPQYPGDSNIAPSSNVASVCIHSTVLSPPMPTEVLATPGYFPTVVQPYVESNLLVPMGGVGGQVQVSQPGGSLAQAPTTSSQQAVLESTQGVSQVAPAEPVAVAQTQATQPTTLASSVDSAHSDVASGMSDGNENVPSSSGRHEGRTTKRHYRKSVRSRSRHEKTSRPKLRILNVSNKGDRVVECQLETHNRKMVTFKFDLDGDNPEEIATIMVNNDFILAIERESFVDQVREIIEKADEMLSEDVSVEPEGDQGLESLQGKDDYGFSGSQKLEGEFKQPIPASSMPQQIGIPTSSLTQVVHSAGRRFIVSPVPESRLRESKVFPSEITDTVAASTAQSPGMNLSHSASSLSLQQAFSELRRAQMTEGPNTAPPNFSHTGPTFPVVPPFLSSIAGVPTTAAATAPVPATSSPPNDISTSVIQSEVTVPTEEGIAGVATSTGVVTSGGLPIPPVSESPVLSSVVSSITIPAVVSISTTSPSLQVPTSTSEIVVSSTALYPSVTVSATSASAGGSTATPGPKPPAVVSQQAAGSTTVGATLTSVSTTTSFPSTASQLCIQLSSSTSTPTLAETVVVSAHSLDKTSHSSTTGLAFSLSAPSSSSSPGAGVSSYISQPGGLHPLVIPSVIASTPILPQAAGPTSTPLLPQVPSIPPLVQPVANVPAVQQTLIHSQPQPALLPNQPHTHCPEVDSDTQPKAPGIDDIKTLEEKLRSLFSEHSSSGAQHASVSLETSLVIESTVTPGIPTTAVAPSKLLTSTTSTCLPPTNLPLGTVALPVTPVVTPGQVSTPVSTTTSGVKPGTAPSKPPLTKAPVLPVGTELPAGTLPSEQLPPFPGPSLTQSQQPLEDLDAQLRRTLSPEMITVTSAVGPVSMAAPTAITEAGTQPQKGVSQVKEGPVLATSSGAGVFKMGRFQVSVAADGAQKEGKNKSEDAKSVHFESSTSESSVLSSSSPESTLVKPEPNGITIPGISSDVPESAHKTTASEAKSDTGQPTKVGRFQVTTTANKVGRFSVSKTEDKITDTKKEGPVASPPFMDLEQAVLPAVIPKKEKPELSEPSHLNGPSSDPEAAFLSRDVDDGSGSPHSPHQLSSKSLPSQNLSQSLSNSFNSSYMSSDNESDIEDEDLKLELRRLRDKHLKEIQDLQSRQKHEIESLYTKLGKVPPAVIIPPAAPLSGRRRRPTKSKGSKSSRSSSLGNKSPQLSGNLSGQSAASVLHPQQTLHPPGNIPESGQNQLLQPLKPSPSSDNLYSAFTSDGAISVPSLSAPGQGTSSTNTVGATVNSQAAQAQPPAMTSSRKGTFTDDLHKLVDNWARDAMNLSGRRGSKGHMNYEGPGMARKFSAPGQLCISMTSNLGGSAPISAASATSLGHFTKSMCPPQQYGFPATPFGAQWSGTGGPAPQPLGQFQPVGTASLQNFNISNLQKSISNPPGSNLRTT
Chain of UniProt Q9SZU7 (whole entry, unmodified, looked up): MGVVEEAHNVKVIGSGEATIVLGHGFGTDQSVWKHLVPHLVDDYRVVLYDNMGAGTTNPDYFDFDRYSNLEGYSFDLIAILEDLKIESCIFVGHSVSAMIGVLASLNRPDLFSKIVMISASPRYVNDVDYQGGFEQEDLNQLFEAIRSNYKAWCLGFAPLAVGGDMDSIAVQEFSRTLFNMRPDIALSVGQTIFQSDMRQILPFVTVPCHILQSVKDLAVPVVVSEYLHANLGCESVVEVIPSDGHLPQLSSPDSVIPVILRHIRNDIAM

`CC(=O)/C=C/C=C(C)/C=C/C1=C(C)CC(O)CC1(C)C` (stereo in doubt) has a ΔTm of 0.44 °C (KAI2 (Arabidopsis thaliana, UniProt Q9SZU7); thermal stability, DSF; 10 µM).
The ΔTm of `Cc1cc2c(cc1N1C(=O)c3cccc4c(Cl)ccc(c34)C1=O)n(C)c(=O)n2C` is reported as 0.3 °C (Transcription initiation factor TFIID subunit 1, BD1 (TAF1, Homo sapiens, UniProt P21675); thermal stability, DSF; 10 µM).
`COc1cc(NC(=O)Nc2ccc(C)c(F)c2)cc2sc(NC(=O)c3ccccc3)nc12` has a remaining activity of 15.7% (Proto-oncogene tyrosine-protein kinase receptor Ret (RET, Homo sapiens, UniProt P07949); enzyme activity, inhibitor, radiometric; 10 µM).
The remaining binding of `CCCCC(=O)Nc1ccc(-c2ccc3ncn(CCC)c(=O)c3c2)cn1` is reported as 100% (SRSF protein kinase 2 (SRPK2, Homo sapiens, UniProt P78362); binding, competition with immobilised ligand; 0.5 µM).
For `F[C@@H]1CCN(c2nccc(-c3cnn4ncccc34)n2)C1`, the remaining binding was 100% (Serine/threonine-protein kinase SIK1 (SIK1, Homo sapiens, UniProt P57059); binding; 1 µM).
The remaining activity of `COc1cc(-c2cncc3c2CN(C)Cc2cc(N4CCNCC4)ccc2-3)cc(OC)c1OC` is reported as 109% (Ephrin type-A receptor 3 (EPHA3, Homo sapiens, UniProt P29320); enzyme activity, inhibitor; 1 µM).
The remaining activity of `CNc1ncc2c(/C=C/C(=O)N3CCC(OC)CC3)nn(Cc3cccc(C(F)(F)F)c3)c2n1` is reported as 100% (Serine/threonine-protein kinase WNK1 (WNK1, Homo sapiens, UniProt Q9H4A3); enzyme activity, inhibitor, radiometric; 1 µM).
With `CC[C@H](C)[C@H](NC(=O)[C@H](CCC(N)=O)NC(=O)[C@H](CC(C)C)NC(=O)[C@H](CCSC)NC(=O)[C@H](CCCCN)NC(=O)[C@H](CO)NC(=O)[C@H](CO)NC(=O)[C@H](CCSC)NC(=O)[C@H](CC(C)C)NC(=O)[C@H](CC(N)=O)NC(=O)[C@@H](NC(=O)[C@@H](NC(=O)[C@H](CO)NC(=O)[C@H](CC(C)C)NC(=O)[C@H](CS)NC(=O)[C@H](CCCNC(=N)N)NC(=O)[C@H](CC(=O)O)NC(=O)[C@H](Cc1c[nH]c2ccccc12)NC(=O)[C@H](Cc1ccccc1)NC(=O)[C@H](C)NC(=O)[C@H](CCC(=O)O)NC(=O)[C@@H](N)CCCCN)C(C)C)[C@@H](C)CC)C(=O)N[C@@H](CC(N)=O)C(=O)N[C@@H](C)C(=O)O` the remaining activity was 94% (Mitogen-activated protein kinase 3 (MAPK3, Homo sapiens, UniProt P27361); enzyme activity, inhibitor, radiometric; 100 µM, 20 min).
`COc1cc(CNC(=O)c2ccccc2)cc(Br)c1OC` gave an inhibition of 15.2% (Replicase polyprotein 1ab, papain-like protease (rep, Porcine epidemic diarrhea virus, UniProt P0C6Y4); enzyme activity, inhibitor, FRET; 10 µM).
With `COc1cc2c(CCNC(C)=O)c(I)[nH]c2cc1[N+](=O)[O-]` the Emax was 96% (MTNR1A; β-arrestin recruitment, agonist; CHO-K1; 90 min).
With `NC/C(=C\F)COc1cccc(Cn2c(=S)[nH]c(=O)c3[nH]cnc32)c1` the inhibition was 28% (Myeloperoxidase (MPO, Homo sapiens, UniProt P05164); enzyme activity, inhibitor, fluorescence; 4.1 nM).
`COCC(CNC(C)=O)c1cccc2ccc(OC)cc12` (centres unmarked) has an Emax of 81% (MTNR1A; β-arrestin recruitment, agonist; CHO-K1; 90 min).
For `Cc1cc([C@@H](C)Nc2ccccc2C(=O)O)c2nc(N3CCC(F)(F)CC3)c(C#N)c(=O)n2c1`, the remaining binding was 100% (PDPK1; binding, competition with immobilised ligand; 10 µM).
For `C=CC(=O)N1CCC(COCC(=O)N2CCN(c3nc(-c4cnc(N)nc4C(F)F)nc(N4CCOC[C@@H]4C)n3)CC2)CC1`, the remaining binding was 100% (PDPK1; binding, competition with immobilised ligand; 1 µM).
For `Nc1ncnc2occ(-c3ccc(NC(=O)Nc4cc(C(F)(F)F)ccc4F)cc3)c12`, the remaining signal was 0.1% (Receptor-type tyrosine-protein kinase FLT3, autoinhibited (FLT3, Homo sapiens, UniProt P36888); cell-free assay, inhibitor; 20 µM).
`C1=C/COCc2cc(ccc2OCCN2CCCC2)Nc2nccc(n2)-c2cccc(c2)COC/1` gave a remaining signal of 100% (Tyrosine-protein kinase JAK1, JH1 (JAK1, Homo sapiens, UniProt P23458); cell-free assay; 0.1 µM).
For `CCC(=O)NC1Cc2ccccc2C(c2ccccc2)C1` (centres unmarked), the Emax was 68% (MTNR1A; β-arrestin recruitment, agonist; CHO-K1; 90 min).

Excerpt of the above:
For `F[C@@H]1CCN(c2nccc(-c3cnn4ncccc34)n2)C1`, the remaining binding was 100% (Serine/threonine-protein kinase SIK1 (SIK1, Homo sapiens, UniProt P57059); binding; 1 µM).
